# Published values from different studies.
# Lines come from different studies, so protocols differ. ± marks the error that the study gave.
Compound,cell line,test,conditions,scale,inhibition [%]
COc1cc([C@@H]2O[C@@H](c3cc(OC)c(O[C@@H]4O[C@H](CO)[C@@H](O)[C@H](O)[C@H]4O)c(OC)c3)[C@H](CO)[C@H]2CO)cc(OC)c1O,PCS-210-010 human pre-adipocytes,"lipid accumulation, Oil Red O staining","5 µM, early differentiation",relative to: vehicle,> 50
Cc1cc(C)nc(SCC(=O)Nc2ncc(Cc3cccc4ccccc34)s2)n1,HGC-27,"cell viability, MTS",10 µM,,27.2 ± 10.1
COc1cccc2c1cc1c3c(cc4c(c32)OCO4)[C@@H]2c3c4c5c(cc6c(c5c5cccc(OC)c35)OCO6)CCN4[C@@H]2N1C (racemic),MOLT-3,"cytotoxicity, XTT","50 µg/mL, 48 h, 20% fetal bovine serum",,< 50
Cc1nc(=S)[nH]c(C)c1/N=N/c1nnc(S)s1,Vero,"cell viability, MTT",2.5 µg/mL,,15.2 ± 0.777
Cc1nc2c(F)cc(-c3nc(Nc4ccc(CNC(=O)CCCCCC(=O)NO)cc4)ncc3F)cc2n1C(C)C,SK-OV-3,"cell growth or viability, CCK-8","0.3 µM, 48 h",,97.3
CCOC(=O)c1cn(CC(c2c[nH]c3cc(Br)ccc23)c2c[nH]c3cc(Br)ccc23)c(C)c1C(=O)OC,human Fibroblast,"cell growth or viability, MTS","20 µM, 24 h",,6.5
Cc1nc(=S)[nH]c(C)c1/N=N/c1nnc(S)[nH]1,Vero,"cell viability, MTT",1.25 µg/mL,,15.1 ± 0.246
Cc1cc(C)nc(SCC(=O)Nc2ncc(Cc3cccc(OCc4cn(-c5ccc(Cl)cc5)nn4)c3)s2)n1,HGC-27,"cell viability, MTS",10 µM,,13.5 ± 2.9
Nc1ncn([C@@H]2O[C@H](CO)[C@@H](O)[C@H]2O)c(=O)n1,"AML blasts, primary, RUNX1-mutated",CD34+ blast expansion,"2400 nM, HUVEC co-culture",,11
CSc1ccc(NC(=O)c2cnn(-c3ccc([N+](=O)[O-])cc3)c2C(F)(F)F)cc1,LX-2,"cell growth or viability, MTS","50 µM, 72 h",,11.2
COCCn1cc(COc2cccc(Cc3cnc(NC(=O)C(C)c4ccc(CC(C)C)cc4)s3)c2)nn1 (stereo not shown),HGC-27,"cell viability, MTS",10 µM,,11.6 ± 6.6
CC(C)(C)c1ccc(NC(=O)c2cnn(-c3ccc([N+](=O)[O-])cc3)c2C(F)(F)F)cc1,LX-2,"cell growth or viability, MTS","50 µM, 72 h",,14.5
Cc1[nH]c(=S)[nH]c(=O)c1/N=N/c1nnc(S)s1,Vero,"cell viability, MTT",5.0 µg/mL,,20 ± 0.392

# For quick reference, copied from above:
Compound,cell line,test,conditions,scale,inhibition [%]
CSc1ccc(NC(=O)c2cnn(-c3ccc([N+](=O)[O-])cc3)c2C(F)(F)F)cc1,LX-2,"cell growth or viability, MTS","50 µM, 72 h",,11.2
